Results pooled from the literature.
Parts stem from different laboratories: compare values within a part only. Several values in a cell are separate wells, animals, samples, runs or records. Substitutions count along the parent as printed.
Sequence of UniProt Q5BJF2 (whole entry, looked up): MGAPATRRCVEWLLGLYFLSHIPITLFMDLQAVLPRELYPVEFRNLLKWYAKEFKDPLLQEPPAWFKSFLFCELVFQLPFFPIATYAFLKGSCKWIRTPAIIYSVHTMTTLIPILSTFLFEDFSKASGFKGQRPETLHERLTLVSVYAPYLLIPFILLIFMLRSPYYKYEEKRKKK

Set 1
Target: tungstate, free oxyanion
Method: microfluidic competitive inhibition
Matrix: in vitro, cell-free expressed
Concentration: not given
Setting: derived from inhibition constants, unchanged parent 2230 nM
Direction: lower = stronger binding
Parent: PafA, mature enzyme, eGFP fusion (Elizabethkingia meningoseptica, UniProt Q9KJX5); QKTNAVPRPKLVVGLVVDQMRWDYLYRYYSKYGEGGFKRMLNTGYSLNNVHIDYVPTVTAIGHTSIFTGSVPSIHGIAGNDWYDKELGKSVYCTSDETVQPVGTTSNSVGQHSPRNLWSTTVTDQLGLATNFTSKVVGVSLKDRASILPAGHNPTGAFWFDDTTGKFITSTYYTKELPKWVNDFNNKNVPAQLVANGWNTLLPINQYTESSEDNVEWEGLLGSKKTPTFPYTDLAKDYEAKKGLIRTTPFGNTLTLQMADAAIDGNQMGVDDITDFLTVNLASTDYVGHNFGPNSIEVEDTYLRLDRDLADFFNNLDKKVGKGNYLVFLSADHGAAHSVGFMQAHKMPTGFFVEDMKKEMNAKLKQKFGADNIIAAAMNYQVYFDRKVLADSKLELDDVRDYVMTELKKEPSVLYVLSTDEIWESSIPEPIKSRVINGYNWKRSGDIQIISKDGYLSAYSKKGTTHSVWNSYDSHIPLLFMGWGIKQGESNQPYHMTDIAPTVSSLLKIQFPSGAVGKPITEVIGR
Change | oxyanion analog dissociation constant [µM]
M20V | 2.52
T253V | 1.36
A145V | 489
T464G | 2.04
D498G | 1.78
F132G | 1.87
L506G | 1.24
M481V | 2.03

Set 2
Target: CCNE1, cyclin fold, Cln2 fusion (human)
Method: yeast growth competition, sequencing
Matrix: yeast
Setting: strong parent motif
Reference: not given
Direction: higher = stronger binding
Parent: viral docking peptide; YKVKRRLVFGADD; partner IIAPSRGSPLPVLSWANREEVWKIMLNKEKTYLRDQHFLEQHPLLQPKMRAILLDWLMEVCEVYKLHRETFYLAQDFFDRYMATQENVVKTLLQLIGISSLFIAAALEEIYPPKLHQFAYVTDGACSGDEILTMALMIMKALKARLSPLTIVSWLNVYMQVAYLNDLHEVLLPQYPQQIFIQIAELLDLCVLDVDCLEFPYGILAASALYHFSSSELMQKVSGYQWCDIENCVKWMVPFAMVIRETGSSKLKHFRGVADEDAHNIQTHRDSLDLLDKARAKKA
Change | normalised enrichment score
K4A | 3.86
D12T | 5.04
A11G | 6.33
R5E | -0.0538
L7S | 0.636
R5Y | 0.143
F9Q | 0.293
V8H | 5.92

Other studies, line by line
Compound | target or system | assay | system | conditions | how to read | endpoint | result
CS(=O)(=O)N1CCCC(NC(=O)[C@H](CCC2CCCCC2)NC(=O)c2ccc(CNC(=O)c3cnc4ccccn34)cc2)C1 (stereo partly shown) | CDPK1 (Plasmodium falciparum, UniProt P62344) | cell-free assay, competition with immobilised ligand | – | 0.1 µM | – | remaining binding | 78%
CNC(=O)c1ccc(-c2cnn3ccc(C(=O)N(C)c4ccc(Cl)c(C(=O)OC)c4)cc23)cc1 | Cryptosporidium parvum | time-kill | nanoluciferase-expressing | 9 nM, 4 h | reference: DMSO | luminescence | 116% and 113%
Cc1c(N2CCNCC2)nc2ccc(Br)cc2c1C(=O)NC[C@H](CCC(=O)O)c1ccccc1Cl | TMEM97 (Homo sapiens, UniProt Q5BJF2) | ligand displacement | – | 10 µM | – | inhibition | 60%

Repeated from above (set 2):
Change | normalised enrichment score
R5E | -0.0538
